Published values pooled from the literature.
Every numbered part comes from another study and shows a few of its results, in no order. Substitutions count along the parent as printed.

Block 1
Target: RNA binding protein fox-1 homolog 2, RRM domain, GST-SBP tag (RBFOX2, Homo sapiens, UniProt O43251-10, residues 100-194)
Method: RNA Bind-n-Seq
Molecule type: RNA
Medium: in vitro
Concentration: 365 nM
Setting: natural RNA segment, single round, ends assumed
Reference: no-protein control
Direction: higher = stronger binding
Measurement: RBNS enrichment (R)
Constant ends, left off below: GGGAGUUCUACAGUCCGACGAUC … UGGAAUUCUCGGGUGCCAA
Construct (chain): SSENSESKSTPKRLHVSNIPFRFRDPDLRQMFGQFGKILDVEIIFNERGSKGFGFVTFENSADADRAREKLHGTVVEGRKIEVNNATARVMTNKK
Oligonucleotide = UUCUCCCGUUCUCAAGGGAGUCAGAUCAGGGGAACUAUUCUAGGGUAUGUUGCGGGGUAUUAAGCAGGAAACCACUGUGUGGUGGGGGGCACUGGGCUUGUUGGGGCCAG; value = 0.956
Oligonucleotide = GCUUUGGCAUGAAAAGUGGUCCUCUUGACUGCAUUAUGCAUGCGAGGAUGAAAUAAACCUAGAAGUGGCAGAACACUGGAUUUGUGUGUGUGGCGCUUUAGGGUGCUGGA; value = 17
Oligonucleotide = ACAGCCCGGUGGACCUUCAGCCAAGAAACGCUGACUUCAUUCUCUAUUGCCCCUGCUGAGGGGCUCCUGCCUAAGGAAGACAUGAUAUCCAGUAGACACAAGCAAGAAGA; value = 0.249
Oligonucleotide = UAUACUAUGUUUGCGAACCUUGGUAGCUAUGAUGAGAGCUAUUAUCAUCUGUGGUGGGAAAAGCUAUGUAAAUAGGUAGAUUGUAUAGAGAGACUAUCUUGUGUUGUGCC; value = 1.17
Oligonucleotide = CCCAGUCUCGGGUAUGUCUUUAUCAGCAGUGUGAAAACAGACUAAUACACCACUCCUCUACCUUCUUUAUUUUCUCAGUGUGGAAAAUGCCUGAUGAAAGCUUUGGGGCC; value = 0.356
Oligonucleotide = GCCACCGUGGGACAUCAAGUGGAAGAACUUGUUUGCUUGAAAGUAUCUCAGACCCAAGGCACCUCAGGUCUCUUUGCUGUGCCUCCACUAUAUUGUCGUGUGGGUGUGUG; value = 0.481
Oligonucleotide = CCACCACCCGAAAUGCCACGUGGUCACUGUGCACUGCCCUGUUCAUGUGCCUCUGCGGGGCAGGGCCUUCCUGGUUUUGUUCACUGCUGUACCCAGAUGCCUACAACCAU; value = 0.815
Oligonucleotide = UAUGGAAACAUGAGAUUCUCCUCUAUUGGAAGCUAAUUAGCCCACAAAGGUGGUAAACCUGUAGAUUGGGCCUUAAUUAGCAUUGUACUCUAAUCAAAGGACUCUUUCUA; value = 0.226

Block 2
Target: CCNE2, cyclin fold, Cln2 fusion (human)
Method: yeast growth competition, sequencing
Medium: yeast
Setting: weak parent motif
Reference: not given
Direction: higher = stronger binding
Measurement: normalised enrichment score
Parent: ORC1 docking peptide (human); PRARKRLELGNLG
Substitution = PRARKRLWLGNLG [E8W]; value = 1.18
Substitution = PRARKRLELGDLG [N11D]; value = 0.649
Substitution = PRARKRLERGNLG [L9R]; value = 0.232
Substitution = PRARKRLELQNLG [G10Q]; value = 0.532
Substitution = PRAPKRLELGNLG [R4P]; value = 0.376
Substitution = PRARKRLELKNLG [G10K]; value = -0.341
Substitution = MRARKRLELGNLG [P1M]; value = 0.717
Substitution = PRARKRLELGNLC [G13C]; value = 0.809
Substitution = PRWRKRLELGNLG [A3W]; value = 1.02
Substitution = PRARKRLELHNLG [G10H]; value = 0.865
Substitution = PRARKRLLLGNLG [E8L]; value = 0.912

Block 3
Target: TAR DNA-binding protein 43, full length, His tag (TARDBP, Homo sapiens, UniProt Q13148, residues 1-414)
Method: RNA Bind-n-Seq
Molecule type: RNA
Medium: in vitro
Concentration: 20 nM
Setting: 6-mer, flanks averaged, single round
Together with: 150 mM LiCl
Reference: input library
Direction: higher = stronger binding
Measurement: 6-mer enrichment (R)
Oligonucleotide = GGGCUA; value = 1.01
Oligonucleotide = UACAAG; value = 0.843
Oligonucleotide = CGGUAG; value = 0.982
Oligonucleotide = UGAGAU; value = 0.972
Oligonucleotide = CUAGUA; value = 0.878
Oligonucleotide = AUCGUU; value = 0.927
Oligonucleotide = AAAGCU; value = 0.824
Oligonucleotide = AUGUCU; value = 0.967
Oligonucleotide = GAAAGG; value = 1.03
Oligonucleotide = AGUAGU; value = 1.01
Oligonucleotide = CAAUCA; value = 0.83
Oligonucleotide = GGUUGU; value = 1.3
Oligonucleotide = ACACGU; value = 0.871

Mixed results
Substance = PhoQ, residues 284 288 289 292 302 303 GANMMA; target = PhoP, residues 12 14 15 18 19 NFCKL (Escherichia coli, UniProt P23836); assay = Sort-seq, measured: YFP reporter; test system = E. coli; setting = PhoQ-PhoP variant library, together with: 10 µM Mg2+; scale = reference: high Mg2+ state, higher = stronger signaling; measurement = fold induction; value = 0.786

Repeated from above (block 3):
Oligonucleotide = CAAUCA; value = 0.83
Oligonucleotide = UACAAG; value = 0.843
